Assay results gathered from unrelated publications.
A part holds a random share of what one study measured.

Study 1
Target: Centromere-binding protein 1, full length, His-tagged (CBF1, Saccharomyces cerevisiae, UniProt P17106, residues 1-351)
UniProt P17106, sequence (whole entry, looked up): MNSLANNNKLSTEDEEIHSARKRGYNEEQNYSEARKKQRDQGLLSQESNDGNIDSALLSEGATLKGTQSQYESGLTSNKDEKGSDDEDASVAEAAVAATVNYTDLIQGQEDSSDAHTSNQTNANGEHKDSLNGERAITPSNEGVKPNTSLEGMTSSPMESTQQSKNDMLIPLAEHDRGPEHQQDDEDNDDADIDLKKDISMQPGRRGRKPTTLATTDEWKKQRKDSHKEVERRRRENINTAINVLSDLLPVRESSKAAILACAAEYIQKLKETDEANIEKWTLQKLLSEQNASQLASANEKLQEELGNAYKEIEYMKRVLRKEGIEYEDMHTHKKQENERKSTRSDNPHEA
Method: competition protein-binding microarray
Molecule type: double-stranded DNA, one strand shown
Sample: in vitro
Concentration: 2 µM
Notes: whole 60-bp probe, lowest competitor level
Together with: Pho4 competitor, 0.05 µM
Reading: higher = stronger binding
All sequences stand within: … GTCTTGATTCGCTTGACGCTGCTG
Strand | fluorescence intensity [a.u.]
TTGACGAAACTATGCTGTGTGTGGCCAGGCGAACAA | 56.7
TGGAACATCGCGAACATCGTGCCGACGCTGATAGTC | 73.4
CGTCCTAGTGATTGGAATGTGGGTGCCATGAGGAAG | 77.5
ATTCTTGAGAACATCCGCGTGAACCAGAGCAAACAG | 109
CATACCCAACCTTGTTTCGTGGGTGAAGATATTTGT | 67.4

Study 2
Target: RNA binding protein fox-1 homolog 2, RRM domain, GST-SBP tag (RBFOX2, Homo sapiens, UniProt O43251-10, residues 100-194)
Method: RNA Bind-n-Seq
Molecule type: RNA
Sample: in vitro
Concentration: 365 nM
Notes: natural RNA segment, single round, ends assumed
Relative to: no-protein control
Reading: higher = stronger binding
All sequences stand within: GGGAGUUCUACAGUCCGACGAUC … UGGAAUUCUCGGGUGCCAA
Residues (chain): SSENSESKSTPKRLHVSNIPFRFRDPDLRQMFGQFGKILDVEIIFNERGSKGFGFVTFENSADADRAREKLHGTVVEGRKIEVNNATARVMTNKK
Strand | RBNS enrichment (R)
ACUUCGCUGCUGCUGAGAGCAGGAGAAUUUUCUGCAGCUGUUUCAAAGUUGUGGCCUGGCCUUGAAUCCUCUAUUAAUUACUGUGUGAGCCAGAGGGAACUGCCCUGCAA | 0.881
CUGAUUGAGGACACAUGGUUACCACCUGGCCCUGAGUGCAGUCAGACUGGGACAAAGGAGCCGUGAAACACGCAAGGAGCUUCUGGCUUCUCAGCUUUGAGACCUGGGCU | 0.324
UAUAUAUAUUUUCCAGGUGGUUUUUAGUCUUUACUGAUGAAAGGGUGUUCAUGUUAGUUUCUUCAAAACCCUAUCUAAUACUAGGCAAAGUAGCCAAGAGCCUUUUGUUU | 2.28
AGGAUGGGGAGGUAGGAAUGAGGUAUAGAAAAGAGAUAGCAUCUUCUUUGGCACAAGACUAGUGGCUUACCGCUUACCUUAGAGUUUUGUUUUUUUUUUUUCAAACCCAU | 0.892
UCUCCUAACUUUCUGCUUUAGCGUAAUUGCUCAGAGUAGAGAGCCCCCACAAAGUUAUUUAAAAGAUGCCCUAGCAGCAAUCCACCAGUUUUUCUAAGCUAGAACCUUUG | 0.441

Study 3
Target: Histone acetyltransferase KAT6A, winged helix 2, GST fusion (KAT6A, Homo sapiens, UniProt Q92794, residues 85-181)
Method: protein binding microarray
Molecule type: double-stranded DNA, one strand shown
Sample: in vitro
Concentration: not given
Notes: 8-mer, flanks averaged, mean of 2 arrays, mostly near background
Relative to: not given
Reading: higher = stronger binding
Residues (chain): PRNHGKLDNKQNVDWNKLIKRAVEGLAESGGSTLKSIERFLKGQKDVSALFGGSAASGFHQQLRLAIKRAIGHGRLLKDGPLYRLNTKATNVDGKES
Strand | E-score
AATAGTCG | -0.0305
AGAGGGCC | 0.0751
AGATCACC | -0.104
CACATTCC | -0.115
CTCAGGAC | 0.0204
CACGGCTC | 0.0663

Other studies, line by line
Substance | target | assay | test system | setting | scale | measurement | result
PhoQ, residues 284 288 289 292 302 303 HSYLQF | PhoP, residues 12 14 15 18 19 LHTVL (Escherichia coli, UniProt P23836) | Sort-seq, measured: YFP reporter | E. coli | PhoQ-PhoP variant library, together with: 10 µM Mg2+ | relative to: high Mg2+ state, higher = stronger signaling | fold induction | 98.6

For quick reference, copied from above (study 2):
Strand | RBNS enrichment (R)
UAUAUAUAUUUUCCAGGUGGUUUUUAGUCUUUACUGAUGAAAGGGUGUUCAUGUUAGUUUCUUCAAAACCCUAUCUAAUACUAGGCAAAGUAGCCAAGAGCCUUUUGUUU | 2.28
AGGAUGGGGAGGUAGGAAUGAGGUAUAGAAAAGAGAUAGCAUCUUCUUUGGCACAAGACUAGUGGCUUACCGCUUACCUUAGAGUUUUGUUUUUUUUUUUUCAAACCCAU | 0.892
UCUCCUAACUUUCUGCUUUAGCGUAAUUGCUCAGAGUAGAGAGCCCCCACAAAGUUAUUUAAAAGAUGCCCUAGCAGCAAUCCACCAGUUUUUCUAAGCUAGAACCUUUG | 0.441
